{"data": "Experimental data pooled from the literature", "ribH": "6,7-dimethyl-8-ribityllumazine synthase (ribH, Mycobacterium tuberculosis, UniProt P9WHE9)", "B1": "α-TTP M209D; sequence looked up; chain MAEARSQPSAGPQLNALPDHSPLLQPGLAALRRRAREAGVPLAPLPLTDSFLLRFLRARDFDLDLAWRLLKNYYKWRAECPEISADLHPRSIIGLLKAGYHGVLRSRDPTGSKVLIYRIAHWDPKVFTAYDVFRVSLITSELIVQEVETQRNGIKAIFDLEGWQFSHAFQITPSVAKKIAAVLTDSFPLKVRGIHLINEPVIFHAVFSDIKPFLTEKIKERIHMHGNNYKQSLLQHFPDILPLEYGGEEFSMEDICQEWTNFIMKSEDYLSSISESIQ", "B2": "T4 DNA ligase (1–129); sequence looked up; chain MILKILNEIASIGSTKQKQAILEKNKDNELLKRVYRLTYSRGLQYYIKKWPKPGIATQSFGMLTLTDMLDFIEFTLATRKLTGNAAIEELTGYITDGKKDDVEVLRRVMMRDLECGASVSIANKVWPGL", "B3": "UGT1A9 (Homo sapiens, UniProt O60656); chain GKLLVVPMDGSHWFTMRSVVEKLILRGHEVVVVMPEVSWQLGRSLNCTVKTYSTSYTLEDLDREFKAFAHAQWKAQVRSIYSLLMGSYNDIFDLFFSNCRSLFKDKKLVEYLKESSFDAVFLDPFDNCGLIVAKYFSLPSVVFARGILCHYLEEGAQCPAPLSYVPRILLGFSDAMTFKERVRNHIMHLEEHLLCHRFFKNALEIASEILQTPVTEYDLYSHTSIWLLRTDFVLDYPKPVMPNMIFIGGINCHQGKPLPMEFEAYINASGEHGIVVFSLGSMVSEIPEKKAMAIADALGKIPQTVLWRYTGTRPSNLANNTILVKWLPQNDLLGHPMTRAFITHAGSHGVYESICNGVPMVMMPLFGDQMDNAKRMETKGAGVTLNVLEMTSEDLENALKAVINDKSYKENIMRLSSLHKDRPVEPLDLAVFWVEFVMRHKGAPHLRPAAHDLTWYQYHSLDVIGFLLAVVLTVAFITFKCCAYGYRKCLGKKGRVKKAHKSKTH", "B4": "α-TTP F165A; sequence looked up; chain MAEARSQPSAGPQLNALPDHSPLLQPGLAALRRRAREAGVPLAPLPLTDSFLLRFLRARDFDLDLAWRLLKNYYKWRAECPEISADLHPRSIIGLLKAGYHGVLRSRDPTGSKVLIYRIAHWDPKVFTAYDVFRVSLITSELIVQEVETQRNGIKAIFDLEGWQASHAFQITPSVAKKIAAVLTDSFPLKVRGIHLINEPVIFHAVFSMIKPFLTEKIKERIHMHGNNYKQSLLQHFPDILPLEYGGEEFSMEDICQEWTNFIMKSEDYLSSISESIQ", "B5": "α-TTP I202D/M209D; sequence looked up; chain MAEARSQPSAGPQLNALPDHSPLLQPGLAALRRRAREAGVPLAPLPLTDSFLLRFLRARDFDLDLAWRLLKNYYKWRAECPEISADLHPRSIIGLLKAGYHGVLRSRDPTGSKVLIYRIAHWDPKVFTAYDVFRVSLITSELIVQEVETQRNGIKAIFDLEGWQFSHAFQITPSVAKKIAAVLTDSFPLKVRGIHLINEPVDFHAVFSDIKPFLTEKIKERIHMHGNNYKQSLLQHFPDILPLEYGGEEFSMEDICQEWTNFIMKSEDYLSSISESIQ", "note": "± marks the error that the study gave.", "UniProt P9WHE9, sequence (whole entry, looked up)": "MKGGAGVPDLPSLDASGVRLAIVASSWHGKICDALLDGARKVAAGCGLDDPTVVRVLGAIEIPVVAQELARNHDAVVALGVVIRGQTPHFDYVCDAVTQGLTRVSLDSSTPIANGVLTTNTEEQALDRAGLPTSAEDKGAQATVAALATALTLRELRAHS", "UniProt Q62007, sequence (whole entry, looked up)": "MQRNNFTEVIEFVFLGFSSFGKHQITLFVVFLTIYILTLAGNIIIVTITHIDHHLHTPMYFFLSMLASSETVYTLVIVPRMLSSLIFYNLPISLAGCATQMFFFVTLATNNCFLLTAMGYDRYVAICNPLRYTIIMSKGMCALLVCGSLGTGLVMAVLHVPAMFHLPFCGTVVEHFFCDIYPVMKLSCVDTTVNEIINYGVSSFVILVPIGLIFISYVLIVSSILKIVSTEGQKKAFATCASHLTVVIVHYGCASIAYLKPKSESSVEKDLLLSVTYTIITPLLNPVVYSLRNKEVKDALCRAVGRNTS", "UniProt P41143, sequence (whole entry, looked up)": "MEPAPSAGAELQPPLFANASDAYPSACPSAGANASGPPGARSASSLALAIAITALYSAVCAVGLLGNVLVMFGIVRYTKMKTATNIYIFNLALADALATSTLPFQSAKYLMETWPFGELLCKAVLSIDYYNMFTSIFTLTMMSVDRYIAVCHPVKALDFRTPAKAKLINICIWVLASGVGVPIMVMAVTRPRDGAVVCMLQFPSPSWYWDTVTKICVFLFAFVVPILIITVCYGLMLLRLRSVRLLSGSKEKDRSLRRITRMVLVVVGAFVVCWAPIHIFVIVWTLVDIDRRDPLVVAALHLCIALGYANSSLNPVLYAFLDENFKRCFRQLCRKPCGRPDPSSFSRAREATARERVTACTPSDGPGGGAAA"}
{"Substance": "YFCHQYL", "test system": "peptide, human polyclonal IgM RF LOP", "setting": "concentration not given, 5 µg/mL mAb II-481 coated, with: RF at 50% max binding concentration", "endpoint": "inhibition", "value": "10%"}
{"Substance": "vimentin", "test": "binding, OI-RD scanning microscopy", "test system": "immobilized peptide on epoxy glass", "setting": "rabbit mAb mixture analyte", "endpoint": "Kd", "value": "0.0017 µM"}
{"Substance": "N=C(N)NCCC[C@@H]1NC(=O)[C@H](CCCNC(=N)N)NC(=O)[C@H](CCCNC(=N)N)NC(=O)[C@H](Cc2ccc3ccccc3c2)NC(=O)[C@H](Cc2ccccc2)NC(=O)[C@H](CCC(N)=O)NC(=O)[C@H](CCCNC(=N)N)NC1=O", "test": "lipid binding, fluorescence polarization", "test system": "small unilamellar vesicles PC/PE/sphingomyelin/cholesterol", "setting": "2 h, room temperature, EC50 as lipid concentration", "endpoint": "EC50", "value": "713 ± 76 µM"}
{"Substance": "O=c1[nH]c(/C=C/c2ccc(Cl)cc2)c([N+](=O)[O-])c(=O)[nH]1", "target or system": "ribH", "test": "enzyme activity, inhibitor", "setting": "pH 7.0", "endpoint": "Ki", "value": "45 ± 13 µM"}
{"Substance": "B1 (α-TTP M209D)", "test": "binding, dual polarization interferometry", "test system": "immobilized phospholipid bilayer", "setting": "20 °C", "endpoint": "Kd", "value": "0.488 µM"}
{"Substance": "B2 (T4 DNA ligase)", "test": "DNA binding, fluorescence polarization", "test system": "nicked dsDNA probe", "setting": "pH 7.4, 0.1 M NaCl, with: 15 nM fluorescein-labelled DNA probe", "endpoint": "Kd", "value": "138 µM"}
{"Substance": "B3 (UGT1A9)", "target or system": "Cc1ccc2oc(-c3ccccc3)c(O)c(=O)c2c1", "test": "steady-state kinetics", "setting": "pH 7.4, 37 °C", "endpoint": "Vmax", "value": "0.00675 µmol/min/mg"}
{"Substance": "CCOC(=O)C1=C(C)NC2=C(C(=O)CC(C)(C)C2)C1c1ccc(-c2ccccc2)cc1 (stereo not drawn)", "target or system": "HEK293T (HA-TGFBR2-mCherry)", "test": "cell-surface receptor level, degrader, flow cytometry", "endpoint": "IC50", "value": "1.05 µM"}
{"Substance": "O=c1[nH]c(/C=C/C2C=Nc3ccccc32)c([N+](=O)[O-])c(=O)[nH]1 (stereo not drawn)", "target or system": "ribH", "test": "enzyme activity, inhibitor", "setting": "pH 7.0", "endpoint": "Ki", "value": "70 ± 31 µM"}
{"Substance": "B4 (α-TTP F165A)", "test": "binding, dual polarization interferometry", "test system": "immobilized phospholipid bilayer", "setting": "20 °C", "endpoint": "Kd", "value": "2.11 ± 0.61 µM"}
{"Substance": "CC(C)[C@@H](CN1CCC(c2ccsc2)CC1)NC(=O)[C@H]1Cc2ccc(O)cc2CN1", "target or system": "Delta-type opioid receptor (OPRD1, Homo sapiens, UniProt P41143)", "test": "antagonist", "setting": "with: DPDPE", "endpoint": "Kb", "value": "0.118 ± 0.027 µM"}
{"Substance": "SGVPDRF", "test system": "peptide, human polyclonal IgM RF STR", "setting": "concentration not given, 5 µg/mL mAb II-481 coated, with: RF at 50% max binding concentration", "endpoint": "inhibition", "value": "18%"}
{"Substance": "B5 (α-TTP I202D/M209D)", "test": "binding, dual polarization interferometry", "test system": "immobilized phospholipid bilayer", "setting": "20 °C", "endpoint": "Kd", "value": "4.49 ± 2.1 µM"}
{"Substance": "CC(C)(O)CCCC1=CCC(C=O)CC1 (stereo not drawn)", "target or system": "Or10j5 (Mus musculus, UniProt Q62007)", "test": "ion current, agonist, patch clamp", "endpoint": "EC50", "value": "1.4 µM"}
{"Substance": "O=c1[nH]c(C=Cc2ccccc2)c([N+](=O)[O-])c(=O)[nH]1", "target or system": "ribH", "test": "enzyme activity, inhibitor", "setting": "pH 7.0", "endpoint": "Ki", "value": "15 ± 7.3 µM"}
{"note": "Some of these lines once more:"}
{"Substance": "CC(C)(O)CCCC1=CCC(C=O)CC1 (stereo not drawn)", "target or system": "Or10j5 (Mus musculus, UniProt Q62007)", "test": "ion current, agonist, patch clamp", "endpoint": "EC50", "value": "1.4 µM"}
{"Substance": "O=c1[nH]c(C=Cc2ccccc2)c([N+](=O)[O-])c(=O)[nH]1", "target or system": "ribH", "test": "enzyme activity, inhibitor", "setting": "pH 7.0", "endpoint": "Ki", "value": "15 ± 7.3 µM"}
